Experimental data collected from several papers.
Each numbered part is a random draw from the data of one study; scales do not carry over between parts.
Sequence of UniProt Q96RR4 (whole entry, looked up): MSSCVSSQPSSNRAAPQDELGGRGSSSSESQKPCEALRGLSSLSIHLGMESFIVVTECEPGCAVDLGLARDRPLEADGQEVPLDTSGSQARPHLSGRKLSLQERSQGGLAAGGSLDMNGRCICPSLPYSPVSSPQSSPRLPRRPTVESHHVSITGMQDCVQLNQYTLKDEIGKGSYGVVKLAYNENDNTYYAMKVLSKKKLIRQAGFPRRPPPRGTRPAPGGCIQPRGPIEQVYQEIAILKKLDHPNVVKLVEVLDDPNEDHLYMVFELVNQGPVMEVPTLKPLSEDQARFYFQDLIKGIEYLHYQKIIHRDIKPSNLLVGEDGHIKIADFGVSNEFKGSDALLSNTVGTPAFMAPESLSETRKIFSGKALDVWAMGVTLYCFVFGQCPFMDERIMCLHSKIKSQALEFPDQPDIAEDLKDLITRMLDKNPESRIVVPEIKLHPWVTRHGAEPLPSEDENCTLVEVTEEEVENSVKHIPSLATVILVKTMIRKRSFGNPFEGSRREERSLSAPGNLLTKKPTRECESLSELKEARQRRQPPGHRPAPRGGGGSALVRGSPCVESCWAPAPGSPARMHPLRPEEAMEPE
Sequence of UniProt P36897 (whole entry, looked up): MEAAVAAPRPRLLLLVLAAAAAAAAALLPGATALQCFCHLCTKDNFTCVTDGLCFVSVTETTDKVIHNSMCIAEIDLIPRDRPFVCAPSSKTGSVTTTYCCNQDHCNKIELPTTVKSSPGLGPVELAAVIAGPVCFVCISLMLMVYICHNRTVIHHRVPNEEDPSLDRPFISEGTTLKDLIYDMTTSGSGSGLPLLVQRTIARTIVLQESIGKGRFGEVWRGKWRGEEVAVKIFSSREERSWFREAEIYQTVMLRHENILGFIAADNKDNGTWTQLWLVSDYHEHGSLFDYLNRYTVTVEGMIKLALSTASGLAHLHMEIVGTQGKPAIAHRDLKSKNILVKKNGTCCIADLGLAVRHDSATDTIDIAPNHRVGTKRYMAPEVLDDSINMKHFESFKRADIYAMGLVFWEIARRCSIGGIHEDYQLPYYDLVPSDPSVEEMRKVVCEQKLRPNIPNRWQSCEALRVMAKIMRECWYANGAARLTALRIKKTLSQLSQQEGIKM
Sequence of UniProt Q8NEB9 (whole entry, looked up): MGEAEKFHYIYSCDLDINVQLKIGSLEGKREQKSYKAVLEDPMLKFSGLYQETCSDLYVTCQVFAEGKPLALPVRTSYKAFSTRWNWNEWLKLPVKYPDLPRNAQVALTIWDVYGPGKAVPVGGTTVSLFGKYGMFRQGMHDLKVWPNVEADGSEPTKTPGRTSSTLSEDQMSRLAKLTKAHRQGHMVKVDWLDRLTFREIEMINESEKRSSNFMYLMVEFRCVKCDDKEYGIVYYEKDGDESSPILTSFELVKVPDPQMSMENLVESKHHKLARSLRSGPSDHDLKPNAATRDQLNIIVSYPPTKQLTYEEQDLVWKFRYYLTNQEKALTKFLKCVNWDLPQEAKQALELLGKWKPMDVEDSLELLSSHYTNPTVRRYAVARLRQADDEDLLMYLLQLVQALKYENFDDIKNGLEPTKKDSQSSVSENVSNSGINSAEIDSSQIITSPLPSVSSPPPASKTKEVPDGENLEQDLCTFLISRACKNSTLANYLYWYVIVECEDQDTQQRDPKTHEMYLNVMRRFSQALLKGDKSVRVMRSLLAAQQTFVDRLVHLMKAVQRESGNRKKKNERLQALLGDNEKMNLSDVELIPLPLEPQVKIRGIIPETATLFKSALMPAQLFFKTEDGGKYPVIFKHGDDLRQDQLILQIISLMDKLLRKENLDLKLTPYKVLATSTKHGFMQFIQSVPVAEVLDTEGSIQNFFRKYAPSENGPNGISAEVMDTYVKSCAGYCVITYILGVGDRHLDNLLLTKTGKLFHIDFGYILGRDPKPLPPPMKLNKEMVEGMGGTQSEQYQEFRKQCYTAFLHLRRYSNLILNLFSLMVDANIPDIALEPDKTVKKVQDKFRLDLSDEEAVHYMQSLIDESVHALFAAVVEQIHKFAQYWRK
Sequence of UniProt O14976 (whole entry, looked up): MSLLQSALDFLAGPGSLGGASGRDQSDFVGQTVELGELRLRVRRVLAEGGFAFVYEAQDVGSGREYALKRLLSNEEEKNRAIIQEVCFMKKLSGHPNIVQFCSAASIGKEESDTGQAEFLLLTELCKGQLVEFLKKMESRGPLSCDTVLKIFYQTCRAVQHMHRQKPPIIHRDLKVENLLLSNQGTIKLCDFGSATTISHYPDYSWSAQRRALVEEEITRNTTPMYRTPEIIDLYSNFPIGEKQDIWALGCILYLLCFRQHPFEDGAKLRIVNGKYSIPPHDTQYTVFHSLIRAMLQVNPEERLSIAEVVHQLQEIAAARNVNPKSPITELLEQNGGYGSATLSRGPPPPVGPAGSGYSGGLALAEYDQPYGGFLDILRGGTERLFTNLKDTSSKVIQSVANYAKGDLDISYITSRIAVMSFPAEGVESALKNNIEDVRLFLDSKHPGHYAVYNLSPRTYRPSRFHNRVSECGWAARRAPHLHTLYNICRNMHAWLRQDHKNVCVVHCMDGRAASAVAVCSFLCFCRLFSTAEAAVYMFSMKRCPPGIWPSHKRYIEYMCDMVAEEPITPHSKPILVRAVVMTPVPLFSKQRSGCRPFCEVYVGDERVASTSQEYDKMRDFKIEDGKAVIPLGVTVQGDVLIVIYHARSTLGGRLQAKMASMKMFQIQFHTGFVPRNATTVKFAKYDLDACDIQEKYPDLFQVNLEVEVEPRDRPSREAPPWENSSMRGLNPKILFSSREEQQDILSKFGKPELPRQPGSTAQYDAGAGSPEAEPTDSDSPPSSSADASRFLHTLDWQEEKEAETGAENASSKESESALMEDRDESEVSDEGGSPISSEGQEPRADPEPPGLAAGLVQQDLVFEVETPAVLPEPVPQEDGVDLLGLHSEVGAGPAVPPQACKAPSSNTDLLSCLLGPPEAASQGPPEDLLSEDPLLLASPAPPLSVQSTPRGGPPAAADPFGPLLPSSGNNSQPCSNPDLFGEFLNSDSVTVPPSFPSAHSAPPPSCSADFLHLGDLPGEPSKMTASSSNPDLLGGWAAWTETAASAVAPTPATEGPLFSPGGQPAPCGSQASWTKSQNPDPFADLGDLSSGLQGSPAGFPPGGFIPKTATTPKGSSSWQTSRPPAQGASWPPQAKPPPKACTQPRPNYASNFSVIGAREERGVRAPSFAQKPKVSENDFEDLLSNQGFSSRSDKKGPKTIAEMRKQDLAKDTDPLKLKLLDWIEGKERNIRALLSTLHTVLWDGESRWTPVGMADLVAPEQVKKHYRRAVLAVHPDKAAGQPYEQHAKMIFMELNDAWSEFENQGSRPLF
Sequence of UniProt Q14164 (whole entry, looked up): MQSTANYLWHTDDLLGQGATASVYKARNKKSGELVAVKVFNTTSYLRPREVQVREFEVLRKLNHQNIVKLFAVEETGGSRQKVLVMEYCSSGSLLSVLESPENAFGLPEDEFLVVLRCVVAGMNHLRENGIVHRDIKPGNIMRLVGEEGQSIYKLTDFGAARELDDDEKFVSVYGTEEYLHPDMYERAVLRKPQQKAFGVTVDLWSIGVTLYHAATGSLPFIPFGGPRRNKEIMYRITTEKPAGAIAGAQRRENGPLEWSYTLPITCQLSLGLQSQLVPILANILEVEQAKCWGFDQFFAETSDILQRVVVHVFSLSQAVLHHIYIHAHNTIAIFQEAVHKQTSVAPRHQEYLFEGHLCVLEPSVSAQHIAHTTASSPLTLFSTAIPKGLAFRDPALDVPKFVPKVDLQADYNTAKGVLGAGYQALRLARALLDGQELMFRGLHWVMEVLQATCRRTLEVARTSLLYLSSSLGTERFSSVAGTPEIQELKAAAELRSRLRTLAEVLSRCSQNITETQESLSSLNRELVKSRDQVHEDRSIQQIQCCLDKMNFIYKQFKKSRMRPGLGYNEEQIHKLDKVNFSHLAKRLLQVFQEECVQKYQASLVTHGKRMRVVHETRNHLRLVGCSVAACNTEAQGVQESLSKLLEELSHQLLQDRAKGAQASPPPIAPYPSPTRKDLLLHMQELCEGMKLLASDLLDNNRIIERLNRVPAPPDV

Block 1 — SMILES: O=C(c1ccccc1)c1ccc(N2CCOCC2)cc1O; read-out: enzyme activity; mode: inhibitor; tested at: 0.5 µM; baseline: control
| target | remaining activity [%] |
| --- | --- |
| Tyrosine-protein kinase Lyn, isoform B (LYN, Homo sapiens, UniProt P07948) | 100 |
| STK10 (Homo sapiens, UniProt O94804) | 97.9 |
| IKBKE (Homo sapiens, UniProt Q14164) | 101 |
| STK39 (Homo sapiens, UniProt Q9UEW8) | 94.8 |
| OXSR1 (Homo sapiens, UniProt O95747) | 110 |
| Cyclin-dependent kinase 5, with p25 (CDK5, Homo sapiens, UniProt Q00535) | 98.8 |
| IKBKB (Homo sapiens, UniProt O14920) | 105 |
| CAMK2D (Homo sapiens, UniProt Q13557) | 95.1 |
| DAPK2 (Homo sapiens, UniProt Q9UIK4) | 102 |
| PRKACA (Homo sapiens, UniProt P17612) | 98.3 |
| CHEK2 (Homo sapiens, UniProt O96017) | 106 |
| MAPK9 (Homo sapiens, UniProt P45984) | 98.9 |
| TGFBR2 (Homo sapiens, UniProt P37173) | 109 |
| GRK3 (Homo sapiens, UniProt P35626) | 103 |
| DAPK1 (Homo sapiens, UniProt P53355) | 92.5 |
| CAMKK2 (Homo sapiens, UniProt Q96RR4) | 111 |
| TGFBR1 (Homo sapiens, UniProt P36897) | 94.3 |
| Cyclin-dependent kinase 4, with cyclin D1 (CDK4, Homo sapiens, UniProt P11802) | 96.1 |
| cGMP-dependent protein kinase 1, isoform beta (PRKG1, Homo sapiens, UniProt Q13976) | 86.8 |
| Protein kinase C beta type, isoform beta-I (PRKCB, Homo sapiens, UniProt P05771) | 90.1 |
| NEK2 (Homo sapiens, UniProt P51955) | 101 |

Block 2 — method: RNA Bind-n-Seq; molecule type: RNA; matrix: in vitro; tested at: not given; notes: RNA with constant flanks, ends assumed; baseline: input RNA pool; direction: higher = stronger binding
Target: RING finger protein unkempt homolog, zinc fingers 1-6, GST-SBP tag (UNK, Homo sapiens, UniProt Q9C0B0, residues 30-357)
All sequences stand within: GGGAGUUCUACAGUCCGACGAUC … CAACAGAGGAUUGAGCAUCA
Residues (chain): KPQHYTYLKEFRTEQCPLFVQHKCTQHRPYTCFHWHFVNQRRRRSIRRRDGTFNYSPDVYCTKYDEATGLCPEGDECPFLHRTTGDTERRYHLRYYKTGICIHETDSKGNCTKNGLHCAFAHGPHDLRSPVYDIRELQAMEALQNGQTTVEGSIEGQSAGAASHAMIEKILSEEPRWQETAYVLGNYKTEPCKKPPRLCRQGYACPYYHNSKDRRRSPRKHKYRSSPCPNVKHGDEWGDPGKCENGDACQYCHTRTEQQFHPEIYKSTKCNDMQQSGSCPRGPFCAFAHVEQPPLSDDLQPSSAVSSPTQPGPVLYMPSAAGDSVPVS
| Oligonucleotide | bound/input enrichment |
| --- | --- |
| GACUAGACGUUUUGGAUUUACGAUUCUAUUUUGUCGUUCGGUUGGUGGAAGAUGUGCUCGCCGCUCUAUUUUCCAUGACAGAUAGUGACGACACUACGUGCAAAAGGUAUAUAAAGAUGA | 0.269 ratio |
| AAUCAGUAGAAUUACAUAAUACUAAAGUUGCAGUUGAAAGAAUAUCCAAGUAUGUGUUGGCCGUUACUAAAAGAAUUAUAGCUGUUAUUGCCUUGUAUUUAUAGCCCUUGUUUCAGGUUU | 2.36 ratio |
| CCUUAGGUAACCCUGGUCUGACUAACUAAAGACUUCCCCUCAUGUCACUCCUGGUGUAUACCGGUCACUGCCAAGAAGUUCUGCUCCAUCAUUGGCCUUGCCCUUCUCUAUGUCACCAAG | 0.19 ratio |
| ACCAGAAGAACCCUCCGGAUGUGAGCAGUCCUGGACAGAGCACGUGAGGAGGGGCCCUGGGCCCGCAGUUUGCUGGAUGGGAUUGGCUCCAAGAUGGGAGAUGAAGUCUAAAGGGUUUAU | 0.186 ratio |
| UUCUUGAAGGCUAUUGGGUAUCUUAUUCCUCUUAUGGAUGCAGAAUAUGCCAACUACUAUACCCGAGAAGUGAUGUUAAUCCUUAUUCGAGAAUUCCAGUCUCCUGAUGAGGAAAUGAAA | 0.14 ratio |
| GGUCCUGGCCCCUUACAAGAGAGAUCUCUCUUUGAGAAAAAGAGAGGCGCUCCUCCAAGCCGCAAUAUUGAAGACUUCCAUGGACUCUUACCGAAGGGUUAUCCCCAUCUGUGCUCUAUA | 0.0943 ratio |
| AACCUCACAGAUGAAACAGGAGUAUCUGCUGUUCAGUUUGGAAACUCCUCUACGUCAGUAUCCGCUACGUUAGCUGCCUUAGCUGAAGCUUCUGCCCCAUUGUCCAAUUCUUCAGAAACU | 0.133 ratio |
| CCAAUUGACAACGGUUCAAAAAUCACCAACUACCUUUUAGAGUGGGAUGAGGGAAAAAGAAACCGUGGUUUCAGACAGUGCUUCUUCGGGAGCCAGAAGCACUGCAAGUUGACAAAGCUU | 0.249 ratio |

Block 3 — method: competition with immobilised ligand; tested at: 1 µM
Compound: Nc1cnc(N2CCc3cc(S(=O)(=O)Nc4c(F)cc(Cl)cc4F)cc(N4CCCC4=O)c32)nc1
| target | test | remaining binding [%] |
| --- | --- | --- |
| PDGFRB (Homo sapiens, UniProt P09619) | cell-free assay | 100 |
| FLT3 (Homo sapiens, UniProt P36888, ITD) | cell-free assay | 92 |
| STK32A (Homo sapiens, UniProt Q8WU08) | cell-free assay | 80 |
| PKN2 (Homo sapiens, UniProt Q16513) | cell-free assay | 100 |
| GAK (Homo sapiens, UniProt O14976) | cell-free assay | 100 |
| Ribosomal protein S6 kinase alpha-3, C-terminal kinase domain (RPS6KA3, Homo sapiens, UniProt P51812) | cell-free assay | 84 |
| ERBB4 (Homo sapiens, UniProt Q15303) | cell-free assay | 100 |
| EPHB2 (Homo sapiens, UniProt P29323) | cell-free assay | 87 |
| PIK3C3 (Homo sapiens, UniProt Q8NEB9) | cell-free assay | 100 |
| CAMK2B (Homo sapiens, UniProt Q13554) | cell-free assay | 100 |
| CAMKK2 (Homo sapiens, UniProt Q96RR4) | cell-free assay | 100 |
| NEK4 (Homo sapiens, UniProt P51957) | cell-free assay | 97 |
| EIF2AK2 (Homo sapiens, UniProt P19525) | binding | 41 |
| EGFR (Homo sapiens, UniProt P00533, L858R/T790M) | cell-free assay | 77 |
| PIP4K2B (Homo sapiens, UniProt P78356) | cell-free assay | 100 |

Block 4 — method: universal PBM; molecule type: double-stranded DNA, one strand shown; matrix: in vitro; tested at: 600 nM; direction: higher = stronger binding
Target: Sal-like protein 4, full length isoform A (SALL4, Homo sapiens, UniProt Q9UJQ4, residues 1-1053)
Sequence of UniProt Q9UJQ4 (whole entry, looked up): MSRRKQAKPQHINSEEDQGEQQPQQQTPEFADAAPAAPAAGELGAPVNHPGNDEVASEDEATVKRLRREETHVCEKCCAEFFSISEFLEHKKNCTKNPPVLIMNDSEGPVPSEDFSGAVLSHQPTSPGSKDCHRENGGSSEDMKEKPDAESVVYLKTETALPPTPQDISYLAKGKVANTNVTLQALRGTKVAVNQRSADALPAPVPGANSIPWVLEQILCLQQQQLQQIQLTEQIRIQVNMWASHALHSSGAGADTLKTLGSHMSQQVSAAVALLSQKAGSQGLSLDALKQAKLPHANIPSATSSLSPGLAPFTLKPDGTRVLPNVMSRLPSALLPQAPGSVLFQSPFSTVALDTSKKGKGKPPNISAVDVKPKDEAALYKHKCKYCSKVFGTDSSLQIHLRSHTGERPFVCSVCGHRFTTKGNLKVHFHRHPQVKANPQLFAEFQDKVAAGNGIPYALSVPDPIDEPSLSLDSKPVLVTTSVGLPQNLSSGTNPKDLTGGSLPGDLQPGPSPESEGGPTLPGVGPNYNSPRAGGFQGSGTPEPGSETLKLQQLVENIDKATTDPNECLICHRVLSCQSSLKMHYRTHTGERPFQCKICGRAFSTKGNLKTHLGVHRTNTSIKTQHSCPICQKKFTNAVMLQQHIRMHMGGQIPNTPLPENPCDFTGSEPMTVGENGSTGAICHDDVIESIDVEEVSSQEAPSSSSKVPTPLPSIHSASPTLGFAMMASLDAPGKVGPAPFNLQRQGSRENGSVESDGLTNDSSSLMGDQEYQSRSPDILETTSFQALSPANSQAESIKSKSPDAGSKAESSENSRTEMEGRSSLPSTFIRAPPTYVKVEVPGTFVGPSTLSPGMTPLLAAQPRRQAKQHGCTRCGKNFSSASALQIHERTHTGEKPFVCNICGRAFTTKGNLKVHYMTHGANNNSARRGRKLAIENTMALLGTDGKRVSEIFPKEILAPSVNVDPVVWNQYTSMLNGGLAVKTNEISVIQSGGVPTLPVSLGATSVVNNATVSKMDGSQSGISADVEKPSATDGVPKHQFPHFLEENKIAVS
Notes: 8-mer, flanks averaged, mean of replicates
| Oligonucleotide | E-score |
| --- | --- |
| CAATCTAC | -0.0308 |
| CCTTTTGA | 0.187 |
| GCAGGACC | -0.39 |
| GCTGCGGA | -0.198 |
| CCGTAACC | -0.125 |
| ATGTCTTA | 0.158 |
| AGTTAACC | 0.0583 |
| GAAACCAC | -0.164 |

A few entries again (block 1):
| target | remaining activity [%] |
| --- | --- |
| STK10 (Homo sapiens, UniProt O94804) | 97.9 |
| IKBKE (Homo sapiens, UniProt Q14164) | 101 |
| STK39 (Homo sapiens, UniProt Q9UEW8) | 94.8 |
| OXSR1 (Homo sapiens, UniProt O95747) | 110 |
| Cyclin-dependent kinase 5, with p25 (CDK5, Homo sapiens, UniProt Q00535) | 98.8 |
